Assay results from different studies.
Compare with care: the assays were run in different laboratories. Several values in a cell are separate wells, animals, samples, runs or records.
Target: Serine/threonine-protein kinase MARK1 (MARK1, Homo sapiens, UniProt Q9P0L2)

SMILES	assay	setting	how to read	quantity	value
Cc1cnc2nc1Nc1cccc(c1)COC/C=C/COCc1cc(ccc1OCCN1CCOCC1)N2	binding	0.1 µM	–	remaining binding	97%
CC(C)=CC1OC(C)(C)C2C=C3C(=O)C(Cl)=CC(O)C3C3C(O)C4OC4C(=O)C132 (stereo not shown)	cell-free assay, competition with immobilised ligand	10 µM	–	remaining binding	75%
COc1ccc(O)cc1-c1c[nH]c2ncc(-c3cncc(C(=O)N(C)C)c3)cc12	binding, competition with immobilised ligand	0.2 µM	–	inhibition	44.9%
CNC1C[S+]2CC[S+]3CC[S+](C1)[Ru-4]321([N]=C=S)[n]2c3ccc(OC)cc3c3c4c(c5cc(F)c[n+]1c5c32)C(=O)NC4=O (stereo not shown)	KinomeScan	0.1 µM	baseline: untreated	remaining binding	62%
CCn1cc(C(=O)O)c(=O)c2c(N)c(F)c(NC3CCCCC3)cc21	kinase activity	0.1 µM, added: ATP at Km	–	inhibition	7.3%
C=CC(=O)N1Cc2nc(-c3cc(-c4cc(Cl)cnc4Cl)c(F)cc3F)n(-c3ccncn3)c2C1	cell-free assay, inhibitor	1 µM	–	inhibition	-0.1%
COc1cc(Nc2nc(C)cc(-c3cnn4nc(OC)ccc34)n2)cc(C(F)(F)F)c1	inhibitor	1 µM	baseline: control	remaining activity	98%
NC(=O)[C@@H](O)C[C@H]1CCc2sc3ncnc(O[C@H]4CC[C@H](N5CCOCC5)CC4)c3c21	enzyme activity, inhibitor	10 µM	–	inhibition	0%
CN1CC[C@@H](COc2cnc(C#N)cc2-c2ccn3nc(NC(=O)C4CC4)cc3c2)C1	inhibitor, KinaseProfiler panel	1 µM	–	inhibition	-3%
C=CC(=O)N1CCc2ccc(-n3c(=O)ccc4cnc5ccc(-c6cnn(C)c6)cc5c43)cc21	KINOMEscan	1 µM	baseline: DMSO control	remaining binding	95%
CNC(=O)C[C@H](Cc1ccc(C#N)cc1)NC(=O)c1cc(-c2ccc(CN[C@H](C)c3ccc(C)cc3)o2)ccc1Cl	enzyme activity, inhibitor	1 µM	–	activity vs control	115%
CNC(=O)C1CCN(c2cc(C)c(F)cc2NC(=O)c2ccc(-c3cc(O)ccc3C)c(C)c2)CC1	binding, competition with immobilised ligand	1 µM	–	remaining binding	81%
COc1ccc(NC(=O)Nc2ccc3c(c2)C(=O)N(C(C)CO)CC(C)C(CN(C)Cc2ccc4c(c2)OCO4)O3)cc1 (stereo not shown)	kinase activity, KinaseProfiler	0.03 µM, species human	baseline: control	remaining activity	106%
C=CC(=O)Nc1cccc(-c2cnc3[nH]cc(C(=O)NC(C)(C)C)c3n2)c1	kinase activity	0.1 µM	–	inhibition	51%
COCC12C(=O)NC3C4(C(OC)CC1O)C1CC5(O)C(OC)C(O)C(OC(C)=O)(C1C5OC(=O)c1ccccc1)C3(O)C(OC)C24 (stereo not shown)	kinase activity, inhibitor, ProQinase kinase profiling	25 µM	baseline: control	remaining activity	94% and 90%
Cc1cccc(O[C@H]2CCC[C@@H](C(C)CNCc3ccncc3)C2)c1 (relative stereo)	enzyme activity, inhibitor	1 µM	–	inhibition	2%
